Measurements of several laboratories.
Parts stem from different laboratories: compare values within a part only.

Sample 1
Target: HLA class I histocompatibility antigen, A alpha chain, allele A*80:01 (Homo sapiens, UniProt P04439)
Effect on: peptide-MHC binding
Molecule type: peptide
Concentration: concentration not given
Sequence	binding
NTDIKTLKF	inactive
ESMMGSTAM	inactive
HLKEKSSLR	inactive
LSIIFGRSY	inactive

Other studies, line by line
SLC6A4: Sodium-dependent serotonin transporter (SLC6A4, Homo sapiens, UniProt P31645)
Structure (SMILES)	tested on	test	test system	conditions	endpoint	value
Cc1c(N2CCCC2)nc2ccc(Br)cc2c1C(=O)NC[C@H](CCC(=O)O)c1ccccc1Cl	SLC6A4	binding, radioligand binding		10 µM	inhibition	-7.59%
O=C1CCC(N2Cc3c(ccc4c3OCC43CCN(Cc4ccccc4)CC3)C2=O)C(=O)N1 (centres unmarked)			male Sprague-Dawley rat, plasma	oral, 3 mg/kg	MRT(0-inf)	4.05 h
O=C(O)c1cc(-c2ccc(C3CCNCC3)cc2)c2ccc(-c3ccc(C(F)(F)F)cc3)cc2c1	SLC6A4	binding, radioligand binding		10 µM	inhibition	-2.04%
Cc1ccc(CNC(=O)c2cccc(Nc3ccc(-c4ccc(F)cc4)nn3)c2)o1	HEK-293T-ACE2-TMPRSS2	cell count		10 µM	viability	67%

For quick reference, copied from above (sample 1):
Sequence	binding
LSIIFGRSY	inactive
